# Assay results collected from several papers.
# Each numbered part is a random draw from the data of one study; scales do not carry over between parts. Changes are numbered by the printed parent chain.

# Set 1
# Target: ABI1, truncated, D143A, DHFR fusion (Arabidopsis thaliana)
# Method: DHFR PCA, deep sequencing
# Matrix: yeast
# Notes: methotrexate growth selection, single substitutions
# Together with: (+)-ABA 0.0091 µM
# Reference: wild-type fitted maximum
# Reading: higher = stronger binding
# Parent: PYL1, truncated, DHFR fusion (Arabidopsis thaliana); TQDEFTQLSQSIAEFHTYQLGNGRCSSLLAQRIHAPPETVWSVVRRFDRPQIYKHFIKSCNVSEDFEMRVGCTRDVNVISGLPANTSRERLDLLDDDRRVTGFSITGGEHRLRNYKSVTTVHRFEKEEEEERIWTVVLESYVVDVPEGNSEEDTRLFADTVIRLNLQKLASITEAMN
Change,relative binding score
C72V,38.9%
N85V,70.1%
D159C,-1.65%
G148Y,-9.22%
V136N,-14.1%
T73R,0.5%

# Set 2
# Target: CCNA2, cyclin fold, Cln2 fusion (human)
# Method: yeast growth competition, sequencing
# Matrix: yeast
# Notes: strong parent motif
# Reference: not given
# Reading: higher = stronger binding
# Parent: HASPIN docking peptide (human); ASLRSVLFGLMNS
Change,normalised enrichment score
ASARSVLFGLMNS [L3A],0.891
ASLRAVLFGLMNS [S5A],1.43
ASLRSVLFGAMNS [L10A],0.93
ASLRSVAFGLMNS [L7A],0.649
ASLASVLFGLMNS [R4A],0.69
ASLRSVLFGLMNA [S13A],1.35

# Set 3
# Target: Protein C-ets-1 (ETS1, Homo sapiens, UniProt P14921, residues 1-441, full length assumed)
# Method: protein-binding microarray
# Form: double-stranded DNA, one strand shown
# Matrix: in vitro
# Concentration: not given
# Notes: k-mer, scored over probes, only values ≥0.25
# Reading: higher = stronger binding
# Target sequence (chain): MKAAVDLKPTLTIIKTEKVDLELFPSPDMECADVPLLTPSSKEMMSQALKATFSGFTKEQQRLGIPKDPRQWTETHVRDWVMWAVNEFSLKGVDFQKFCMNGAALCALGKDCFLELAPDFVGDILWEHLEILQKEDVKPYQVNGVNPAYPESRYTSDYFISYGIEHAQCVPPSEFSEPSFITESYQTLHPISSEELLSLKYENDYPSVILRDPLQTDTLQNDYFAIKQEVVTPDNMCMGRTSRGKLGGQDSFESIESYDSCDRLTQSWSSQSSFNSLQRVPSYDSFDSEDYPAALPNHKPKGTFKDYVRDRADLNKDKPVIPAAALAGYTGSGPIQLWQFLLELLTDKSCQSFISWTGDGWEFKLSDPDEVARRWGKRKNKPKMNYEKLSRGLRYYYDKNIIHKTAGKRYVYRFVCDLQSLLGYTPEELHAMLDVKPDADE
Sequence,E-score
GGGTAGGA,0.271
CCTTCCTC,0.363
TGTAGGAA,0.256
AACAGGAT,0.444
ATGCGGAA,0.434
GGAAGTAC,0.457
GGAAGGTA,0.316
AGAGGACG,0.284
ATGTGGAA,0.258
CCGGTTAC,0.327

# Mixed results
Substance,target,assay,test system,conditions,scale,measurement,result
"PhoQ, residues 284 288 289 292 302 303 ALASRC","PhoP, residues 12 14 15 18 19 AGCRL (Escherichia coli, UniProt P23836)","Sort-seq, refers to: YFP reporter",E. coli,"PhoQ-PhoP variant library, together with: 10 µM Mg2+","reference: high Mg2+ state, higher = stronger signaling",fold induction,7.39

# Excerpt of the above (set 3):
Sequence,E-score
GGAAGGTA,0.316
TGTAGGAA,0.256
ATGTGGAA,0.258
